Experimental data gathered from unrelated publications.
A part holds a random share of what one study measured. Substitutions count along the parent as printed.

Sample 1 — technique: RNA Bind-n-Seq; form: RNA; sample: in vitro; concentration: 365 nM; relative to: no-protein control; reading: higher = stronger binding
Target: RNA binding protein fox-1 homolog 2, RRM domain, GST-SBP tag (RBFOX2, Homo sapiens, UniProt O43251-10, residues 100-194)
Notes: natural RNA segment, single round, ends assumed
Residues (chain): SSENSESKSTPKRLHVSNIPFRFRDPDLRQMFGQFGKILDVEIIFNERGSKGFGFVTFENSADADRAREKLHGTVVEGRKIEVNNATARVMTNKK
For `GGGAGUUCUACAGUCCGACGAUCAACACACCUCCAAACUGUAAGGCUGUGCACAAACAUAAAAAAUGGCAGCCUUCCAUCUCCUGCACUGGCUGAGUCCAUUUACUUGUGUACUUGUUCUAGUGAGUGGUGGGUGGAAUUCUCGGGUGCCAA`, “RBNS enrichment (R)” read 0.258.
`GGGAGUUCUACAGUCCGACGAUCUACAUUUUGUUAUAGAAUACUUUUUUCUAGUUUCAGUAAAUAAUGAAAAGGAAGUUAAUACCAAUAAGUGUAAGCAGUAACCUUUUUUCUUUGGAUUAACCCUAGCCCUGUGGAAUUCUCGGGUGCCAA` — result for “RBNS enrichment (R)”: 0.412.
Under “RBNS enrichment (R)”, `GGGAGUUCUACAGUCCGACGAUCCCAGGAUAAUGAGCGUUGCUGACACCCUUGCUAGCUUGUCCUGCCUACCUGCUUACCCCACUCCCUCACCUUCCUCCUUCCCUUCUGCCCUCCAUCCACCUGCCUUAACUUGGAAUUCUCGGGUGCCAA` is recorded as 1.24.
`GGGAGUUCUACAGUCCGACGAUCCUUUAUCUUACUCUUCAGCUAAUGAAGUAGCAACAGUGUGUUACUAAUGAUUGCAAUCAUACAGUGCUUAAUAUGUGCCAGACACAGUGCCAAGGGCUUGCAUGCAUUAUUGGAAUUCUCGGGUGCCAA`: “RBNS enrichment (R)” 4.48.
For `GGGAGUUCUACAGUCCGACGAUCACUUUUUGUGGAAUUCUCUGAUAAAGGAAGCUUUUAGGAUGGUAUCUAUCAGGCCACCAGCAGGAAUUGAAAAUGUUUUCACAAAAAUCCUUUUCCUUAGAAAUAAAAGCUGGAAUUCUCGGGUGCCAA`, “RBNS enrichment (R)” read 0.652.
Under “RBNS enrichment (R)”, `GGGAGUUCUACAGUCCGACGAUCGCAAUAUGCACUACUCCCGACAUAAGUUCUCCAUGGAGACUCUGCAUUGUAAUGCCCACCAACAUCCCAUCAAAGACAUAUAAUGUGCUGUAGUCCACAUUUUAACACUCUGGAAUUCUCGGGUGCCAA` is recorded as 1.07.

Sample 2 — target: CCNB1, cyclin fold, Cln2 fusion (human); technique: yeast growth competition, sequencing; sample: yeast; notes: weak parent motif; relative to: not given; reading: higher = stronger binding
Parent: CDC25A docking peptide (human); PPHRRRLLFACSP
`C11T`: “normalised enrichment score” 0.236.
`R4G`: “normalised enrichment score” 0.501.
`R4V`: “normalised enrichment score” 0.955.
For `R5N`, “normalised enrichment score” read -0.128.
`L7N`: “normalised enrichment score” 0.418.

Sample 3 — technique: protein-binding microarray; form: double-stranded DNA, one strand shown; sample: in vitro; concentration: not given; reading: higher = stronger binding
Target: TATA-box-binding protein 1 (TBP1, Arabidopsis thaliana, UniProt P28147, residues 1-200, full length assumed)
Notes: k-mer, scored over probes, only values ≥0.25
Target sequence (chain): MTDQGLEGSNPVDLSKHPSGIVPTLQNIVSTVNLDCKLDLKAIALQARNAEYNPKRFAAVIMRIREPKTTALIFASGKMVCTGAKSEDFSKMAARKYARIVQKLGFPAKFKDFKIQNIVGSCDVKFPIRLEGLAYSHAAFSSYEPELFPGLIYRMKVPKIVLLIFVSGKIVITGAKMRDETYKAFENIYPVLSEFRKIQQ
`CGATATA` gave an E-score of 0.377.
For `AATAACA`, the E-score was 0.288.
`AATGATA` gave an E-score of 0.3.
For `ATATGCA`, the E-score was 0.256.
With `ATAATAC` the E-score was 0.35.

Single results of other studies
The fold induction of `PhoQ, residues 284 288 289 292 302 303 STVVAA` is reported as 10.6 (PhoP, residues 12 14 15 18 19 SEGLL (Escherichia coli, UniProt P23836); Sort-seq, measured: YFP reporter; E. coli; PhoQ-PhoP variant library, with: 10 µM Mg2+; relative to: high Mg2+ state, higher = stronger signaling).

For quick reference, copied from above (sample 2):
`R4V`: “normalised enrichment score” 0.955.
For `R5N`, “normalised enrichment score” read -0.128.
`L7N`: “normalised enrichment score” 0.418.
